# Published values pooled from the literature.
# Parts stem from different laboratories: compare values within a part only. Changes are numbered by the printed parent chain.
# UniProt P22607, sequence (whole entry, looked up): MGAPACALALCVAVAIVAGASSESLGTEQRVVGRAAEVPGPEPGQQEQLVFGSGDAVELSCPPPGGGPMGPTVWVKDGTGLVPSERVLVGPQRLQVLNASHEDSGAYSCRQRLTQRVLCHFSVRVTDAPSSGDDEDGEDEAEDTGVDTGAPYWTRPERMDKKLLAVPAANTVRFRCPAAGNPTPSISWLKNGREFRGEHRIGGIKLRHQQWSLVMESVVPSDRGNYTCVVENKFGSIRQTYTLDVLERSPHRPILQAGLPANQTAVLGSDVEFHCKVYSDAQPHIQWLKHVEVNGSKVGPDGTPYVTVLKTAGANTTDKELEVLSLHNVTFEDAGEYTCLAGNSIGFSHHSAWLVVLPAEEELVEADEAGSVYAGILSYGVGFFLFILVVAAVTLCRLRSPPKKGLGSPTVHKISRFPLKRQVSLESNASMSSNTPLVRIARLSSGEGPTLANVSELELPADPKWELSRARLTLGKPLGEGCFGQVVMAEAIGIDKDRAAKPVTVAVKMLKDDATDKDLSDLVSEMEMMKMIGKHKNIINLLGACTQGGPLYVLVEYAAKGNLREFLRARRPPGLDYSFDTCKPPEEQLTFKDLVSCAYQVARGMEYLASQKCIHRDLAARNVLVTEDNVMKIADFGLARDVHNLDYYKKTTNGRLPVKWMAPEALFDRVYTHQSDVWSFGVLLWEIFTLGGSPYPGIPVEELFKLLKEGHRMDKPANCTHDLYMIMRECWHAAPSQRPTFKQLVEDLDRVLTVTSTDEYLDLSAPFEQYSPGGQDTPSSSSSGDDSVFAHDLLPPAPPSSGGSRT

# Block 1 — read-out: binding; method: phage display NGS; molecule type: peptide; concentration: concentration not given; baseline: input library
# Target: UDP-N-acetylglucosamine--peptide N-acetylglucosaminyltransferase 110 kDa subunit (OGT, Homo sapiens, UniProt O15294)
# UniProt O15294, sequence (whole entry, looked up): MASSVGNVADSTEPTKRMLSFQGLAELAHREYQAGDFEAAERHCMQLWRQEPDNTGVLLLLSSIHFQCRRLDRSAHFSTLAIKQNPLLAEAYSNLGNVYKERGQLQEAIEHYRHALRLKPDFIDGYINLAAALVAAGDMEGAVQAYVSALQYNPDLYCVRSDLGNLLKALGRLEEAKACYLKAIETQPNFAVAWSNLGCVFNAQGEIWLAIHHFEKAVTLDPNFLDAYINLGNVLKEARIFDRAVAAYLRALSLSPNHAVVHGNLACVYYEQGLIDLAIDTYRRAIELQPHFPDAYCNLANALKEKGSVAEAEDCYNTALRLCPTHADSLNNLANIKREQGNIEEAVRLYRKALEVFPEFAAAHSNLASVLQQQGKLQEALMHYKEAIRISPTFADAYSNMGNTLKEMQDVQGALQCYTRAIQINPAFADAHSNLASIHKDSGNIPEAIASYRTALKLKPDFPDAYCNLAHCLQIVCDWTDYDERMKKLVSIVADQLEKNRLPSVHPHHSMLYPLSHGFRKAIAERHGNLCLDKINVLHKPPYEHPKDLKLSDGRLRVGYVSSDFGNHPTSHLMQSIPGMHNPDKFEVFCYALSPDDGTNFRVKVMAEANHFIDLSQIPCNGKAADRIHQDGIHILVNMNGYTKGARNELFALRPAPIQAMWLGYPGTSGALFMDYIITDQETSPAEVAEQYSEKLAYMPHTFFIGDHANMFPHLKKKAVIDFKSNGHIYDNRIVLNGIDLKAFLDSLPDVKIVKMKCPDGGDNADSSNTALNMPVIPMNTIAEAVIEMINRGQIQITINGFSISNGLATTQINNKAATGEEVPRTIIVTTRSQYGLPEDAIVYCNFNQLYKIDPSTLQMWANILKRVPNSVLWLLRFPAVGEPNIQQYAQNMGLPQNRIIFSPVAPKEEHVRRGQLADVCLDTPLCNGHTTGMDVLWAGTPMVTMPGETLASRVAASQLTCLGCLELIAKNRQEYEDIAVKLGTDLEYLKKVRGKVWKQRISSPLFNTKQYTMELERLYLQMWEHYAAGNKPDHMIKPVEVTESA
Molecule,enrichment fold change
HPIHPHRNKFDVMFI,3.34
WMQHATHDTHNIILV,9.15
RSFATTSYPPVYQIF,4.18
HTASQPQHTYWHRTQ,2.46
HWQDHHFVSDNTYFR,3.94
EALFRYTPFYQIDI,13.6
NLYRPQYQINFFDTI,2.79
HLHGHTYMPRHGEVT,13.6

# Block 2 — target: CCNE2, cyclin fold, Cln2 fusion (human); method: yeast growth competition, sequencing; medium: yeast; notes: strong parent motif; baseline: not given; direction: higher = stronger binding; starting sequence: viral docking peptide; TSVRRALFTGGSD
Variant,normalised enrichment score
L7N,0.438
S12N,4.28
V3I,1.32
T9G,3.32
S12H,3.57
G10D,5.03
F8I,-0.0425
G10A,3.9

# Block 3 — target: vanadate, free oxyanion; method: microfluidic competitive inhibition; medium: in vitro, cell-free expressed; concentration: not given; direction: lower = stronger binding
# Notes: derived from inhibition constants, unchanged parent 676 nM
# Starting sequence: PafA, mature enzyme, eGFP fusion (Elizabethkingia meningoseptica, UniProt Q9KJX5); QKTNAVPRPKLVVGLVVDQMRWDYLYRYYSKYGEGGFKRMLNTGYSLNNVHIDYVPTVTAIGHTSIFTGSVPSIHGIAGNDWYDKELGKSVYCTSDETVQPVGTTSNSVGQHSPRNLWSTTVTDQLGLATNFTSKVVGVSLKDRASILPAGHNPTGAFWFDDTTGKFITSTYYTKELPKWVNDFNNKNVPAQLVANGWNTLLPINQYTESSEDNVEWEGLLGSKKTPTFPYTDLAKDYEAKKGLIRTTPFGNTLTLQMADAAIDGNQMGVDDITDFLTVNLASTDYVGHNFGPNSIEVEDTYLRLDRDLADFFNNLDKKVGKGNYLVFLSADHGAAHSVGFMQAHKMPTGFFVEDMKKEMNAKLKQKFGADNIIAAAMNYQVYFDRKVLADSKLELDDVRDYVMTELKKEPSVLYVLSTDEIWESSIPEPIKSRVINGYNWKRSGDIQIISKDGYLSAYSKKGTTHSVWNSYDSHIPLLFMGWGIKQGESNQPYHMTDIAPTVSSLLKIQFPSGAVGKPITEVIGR
Variant,oxyanion analog dissociation constant [nM]
P9V,771
T163V,539
T155G,909
V99G,595
T164V,818
V194G,470

# Further values, each from its own experiment
Structure (SMILES),target,test,endpoint,value
CNC(=O)c1ccc(-c2cnn3ccc(C(=O)N(C)c4ccc(Cl)c(C(=O)OC)c4)cc23)cc1,"Fibroblast growth factor receptor 3 (FGFR3, Homo sapiens, UniProt P22607)","enzyme activity, inhibitor",IC50,> 30 µM

# Excerpt of the above (block 3):
Variant,oxyanion analog dissociation constant [nM]
V99G,595
T155G,909
T164V,818
